Published values of several laboratories.
Lines come from different studies, so protocols differ. ± marks the error that the study gave.

| Structure (SMILES) | cell line | test | conditions | scale | endpoint | result |
| --- | --- | --- | --- | --- | --- | --- |
| O=C(/C=C/c1ccc(O)cc1)OC(CO)C(=O)O (stereo not drawn) | SW480 | β-catenin-dependent transcription, TOPFLASH luciferase reporter | concentration not given | – | reporter activity | no effect |
| O=C1CCC(N2C(=O)c3ccc(N4CCC(C(=O)N5CCC(CCN6CCC(CNC(=O)c7cccc(-c8noc(C(F)(F)F)n8)c7)(c7nc(-c8ccccc8)cs7)CC6)CC5)CC4)cc3C2=O)C(=O)N1 (stereo not drawn) | NB-4 | flow cytometry | 5 µM, 24 h | – | sub-G0 cells | 43.4% |
| COc1cc(CNC(=O)C[C@H](C)CCC=C(C)C)ccc1OCc1cn(-c2ccc(Cl)cc2Cl)nn1 | UACC-62 melanoma cells | SRB | 10 µM, 48 h | – | growth percent | 65.6% |
| O=c1c(/C=N/NC(=S)N/N=C/c2cc(Cl)ccc2O)coc2ccccc12 | HeLa | Western blot, refers to: phospho-ERK1/2 | 0.1 µM, 24 h | – | reduction in ERK1/2 phosphorylation | ~10% |
| COc1ccc2c(c1CC=C(C)C)O[C@H]1c3cc(CC=C(C)C)c(O)cc3OC[C@@H]21 | 3T3-L1 adipocytes | activator | up to 100 µM | – | glucose consumption | inactive |
| Cc1ccc(C2=Nn3c(N/N=C4/C(=O)Nc5ccc(Br)cc54)nnc3SC2)cc1 | SNB-75 | cell growth or viability, SRB | 10 µM | – | inhibition | 18% |
| Cc1ccc(/C=C2\CCCC3C2=NN(C(=O)c2ccncc2)C3c2ccc(C)cc2)cc1 (stereo not drawn) | human erythrocytes | HRBC membrane stabilization | concentration not given | – | membrane protection | 76.5% |
| CCCc1nc2cc(C(=O)N3CCC4(CC3)CC(=O)c3cc5c(cc3O4)OC(C)(C)CC5)cc(C)c2[nH]1 | AML12, mouse primary hepatocytes | refers to: Pnpla3, lipolysis genes | 1 µM, 24 h | – | mRNA level | increased |
| CC(Cc1ccc(Cl)cc1)=C(c1ccc(Cl)cc1)c1ccc(OCCN(C)C)cc1 | SF-295 | cell growth or viability, SRB | – | – | GI50 | 5.5 µM |
| Cc1cc(/C=C2\CN(C(C)C)C/C(=C\c3cc(C)c(O)c(C)c3)C2=O)cc(C)c1O | HeLa | annexin V/PI flow cytometry | 2.5 µM, 24 h | – | apoptotic cells | 11.3 ± 2.25% |
| CCn1nc(Cl)c2c1-c1cnc(N)c(c1)O[C@H](C)c1cc(F)ccc1-c1nn(C)cc1C2 | 45 ALK-driven cell lines | cell viability | – | relative to: cpd over other ALK inhibitors | IC50 ratio, median | ~1.3 fold |
| Cc1ccc(C(C)C)cc1.Oc1ccccc1C=NNC1=Nc2ccccc2-c2[nH]c3ccc(Br)cc3c2C1.[Cl-].[Cl][Ru+] | SW480 | annexin V/PI flow cytometry | 5 µM, 48 h | – | necrotic cells | 14% |
| COc1cc(CNC(=O)C[C@H](C)CCC=C(C)C)ccc1OCc1cn(-c2ccccc2)nn1 | NCI-H226 | SRB | 10 µM, 48 h | – | growth percent | 79.5% |
| CO[C@H]1N(OC)c2ccccc2[C@@]12CN=C(Nc1cc(C(F)(F)F)cc(C(F)(F)F)c1)S2 (relative stereo) | HCT-116 | annexin V/PI flow cytometry | 40 µM, 48 h | – | viable cells | 37.9 ± 9.12% |
| Nc1ccn(C[C@@H](CO)OCP(=O)(O)OCCCS(=O)(=O)CCCCCCCCCCCCC2CCC2)c(=O)n1 | HFF | – | 30 nM, 72 h, unit not given | relative to: brincidofovir-treated cells | intracellular CDV and CDV-PP level | ~3 |
| O=Cc1c(O)ccc2ccccc12 | HUVEC | RNA sequencing, refers to: HGFAC | 75 µM, 24 h | relative to: DMSO | log2 fold change | 2.7 |
| COc1cc2c(cc1C)NC(=O)C2=Cc1c(Cl)[nH]c2c1ccc1ccccc12 | renal cancer subpanel of NCI-60 | – | 48 h | – | TGI | 8.13 µM |

| Structure (SMILES) | cell line | test | conditions | scale | endpoint | result |
| --- | --- | --- | --- | --- | --- | --- |
| CC/C=C\C/C=C\C/C=C\C/C=C\C/C=C\C/C=C\CCC(=O)Nc1ccn(C2OC(CO)C(O)C2(F)F)c(=O)n1 (stereo not drawn) | SF-295 | NCI60 screen | – | – | TGI | 10.9 µM |
| COc1ccc2c(c1)c(CC(=O)Nc1nnc(CCCCc3ccc(NC(=O)Cc4cccc(OC(F)(F)F)c4)nn3)[se]1)cn2C | H22 | EZMTT | concentration not given, 120 h | – | growth inhibition | 60 to 80% |
| Cc1cc([C@H](C(=O)N2C[C@H](O)C[C@H]2C(=O)N[C@@H](CC(=O)N2CCC(N3CCC(C#Cc4ccc(C(=O)N[C@H]5C(C)(C)[C@H](Oc6ccc(C#N)c(Cl)c6)C5(C)C)cc4)CC3)CC2)c2ccc(-c3scnc3C)cc2)C(C)C)on1 | MDA-MB-453 | partial restoration of decrease, refers to: CDKN1A (p21) | 24 h, added: R1881 | – | effective concentration | ≥ 100 nM |
| COc1cc(CNC(=O)C[C@H](C)CCC=C(C)C)ccc1OCc1cn(-c2cccc(C(F)(F)F)c2)nn1 | K562 leukaemia cells | SRB | 10 µM, 48 h | – | growth percent | 59% |
| CCN(CC)C1CCN(Cc2cc(C#CCNc3ccccc3)cc(I)c2O)CC1 | NUGC-4 p53 wild type | – | 6.25 to 100 µM, 6 h | – | caspase 3/7 activity | no effect |
| Cc1ccc(NC(=O)c2c(C)oc3ccc(O)c(CN4CCCCCC4)c23)cc1 | CA46 | – | concentration not given | – | MYC protein level | no effect |
| COc1cc(CNC(=O)C[C@H](C)CCC=C(C)C)ccc1OCc1cn(-c2ccccc2Cl)nn1 | NCI-H226 | SRB | 10 µM, 48 h | – | growth percent | 59.7% |
| C#Cc1cccc(N(C(=O)CCl)C(C(=O)NC2CCCCC2)c2ccccn2)c1 (racemic) | MDA-MB-435 | click chemistry ABPP | concentration not given, 6 h | – | off-target labelling onset | 1 µM |
| CCC12CCc3c(c4ccccc4n3C)CCN(CC3OC31)C2 (stereo not drawn) | BV-2 | NO production | 12 µM, 1 h, 24 h stimulation, added: LPS 800 ng/mL | relative to: LPS control | inhibition | 64.6 ± 0.1% |
| COc1cc(CNC(=O)C[C@H](C)CCC=C(C)C)ccc1OCc1cn(-c2ccc(Cl)c(Cl)c2)nn1 | K562 leukaemia cells | SRB | 10 µM, 48 h | – | growth percent | 51.9% |
| COc1ccc([C@@H]2CC(=O)c3c(O)cc(O[C@@H]4O[C@H](CO[C@@H]5O[C@@H](C)[C@H](O)[C@@H](O)[C@H]5O)[C@@H](O[C@H]5O[C@H](CO)[C@@H](O)[C@H](O)[C@H]5O)[C@H](O)[C@H]4O)cc3O2)cc1O | A549 | trypan blue exclusion | 100 µg/mL, 24 h | – | cell count | 10800 ± 493 |
| COc1c2c(cc3c1[C@@H]1Oc4c(ccc(O)c4CC=C(C)C)[C@@H]1CO3)OC(C)(C)C=C2 | 3T3-L1 adipocytes | activator | up to 100 µM | – | glucose consumption | inactive |
| CC1=[N+]2N=C(c3ccccc3)[O][Pd-2]2([Cl])[O+]=C2Oc3ccccc3C=C21 (stereo not drawn) | HeLa | annexin V/PI flow cytometry | IC50, 24 h | relative to: untreated | late apoptotic cells | 49 fold |
| COc1ccc(C2=Nn3c(NN=C4C(=O)N(C)c5ccc(Br)cc54)nnc3SC2)cc1 | SF-295 | cell growth or viability, SRB | 10 µM | – | inhibition | 10% |
| CCCCCCCCCCCCCC[C@@H](O)[C@@H](O)[C@H](CO[C@H]1O[C@H](CO)[C@H](O)[C@H](O)[C@H]1O)NC(=O)CCCCCCCCCCc1ccc(OC)cc1 | human Vα24+ NKT cells | – | 10 ng/mL, 24 h, HeLa-CD1d co-culture, unit not given | relative to: α-GalCer | IFN-γ secretion | 1.91 ± 0.19 |
| CC(=O)OC[C@H]1O[C@@H](Sc2sc(C(=O)c3ccc(Br)cc3)c(N)c2-c2nc3ccccc3s2)[C@H](OC(C)=O)[C@@H](OC(C)=O)[C@H]1OC(C)=O | RPMI-8226 | SRB | 10 µM, 48 h | – | growth | 65.5% |

A few entries again:
| Structure (SMILES) | cell line | test | conditions | scale | endpoint | result |
| --- | --- | --- | --- | --- | --- | --- |
| Cc1ccc(C(C)C)cc1.Oc1ccccc1C=NNC1=Nc2ccccc2-c2[nH]c3ccc(Br)cc3c2C1.[Cl-].[Cl][Ru+] | SW480 | annexin V/PI flow cytometry | 5 µM, 48 h | – | necrotic cells | 14% |
| Cc1ccc(C2=Nn3c(N/N=C4/C(=O)Nc5ccc(Br)cc54)nnc3SC2)cc1 | SNB-75 | cell growth or viability, SRB | 10 µM | – | inhibition | 18% |
| CCC12CCc3c(c4ccccc4n3C)CCN(CC3OC31)C2 (stereo not drawn) | BV-2 | NO production | 12 µM, 1 h, 24 h stimulation, added: LPS 800 ng/mL | relative to: LPS control | inhibition | 64.6 ± 0.1% |
| COc1cc2c(cc1C)NC(=O)C2=Cc1c(Cl)[nH]c2c1ccc1ccccc12 | renal cancer subpanel of NCI-60 | – | 48 h | – | TGI | 8.13 µM |
| O=C(/C=C/c1ccc(O)cc1)OC(CO)C(=O)O (stereo not drawn) | SW480 | β-catenin-dependent transcription, TOPFLASH luciferase reporter | concentration not given | – | reporter activity | no effect |
